Experimental data pooled from the literature.
Every numbered part comes from another study and shows a few of its results, in no order.

Set 1 — method: RNA Bind-n-Seq; molecule type: RNA; matrix: in vitro; concentration: 200 nM; setting: whole 134-nt RNA, ends assumed; added: 150 mM LiCl; reference: input library; direction: higher = stronger binding; endpoint: log2 enrichment; all molecules: 7-deaza-guanosine replaces G
Target: Fragile X messenger ribonucleoprotein 1, C-terminal low-complexity region (Fmr1, Mus musculus, UniProt P35922)
Constant ends, left off below: GGGAGUUCUACAGUCCGACGAUC … UGGAAUUCUCGGGUGUCAAGG
AGUCCUGUGCUACACAUCGUAUGUACCGAAUCGGUUUUUUUGGUUUUUGGAAAAAGGAAAGUAUUAUGUUACGCCGUUCGGAUCUGCACU: -2.76
UGGGCGGCUGCGAGAUGAGAACGGACGACCCUACUCGCCCAGUCAGUAUGCGCUCCAGUACGCCGGGGACGGCAGUGUCCUCCUCAUCCC: 0.0566
AAGUCCUGUGCUACACAUCGUAUGUACCGAAUCGGGAAAAGGAAAAGGGAAAAGGGAAAGUAUUAUGUUACGCCGUUCGGAUCUGCACUU: -0.643
CCUGUGCUACACAUCGUAUGUACCGAAUCGGGGAAAAAAAGGAAAAAAAGGAAAAAAAGGAAAGUAUUAUGUUACGCCGUUCGGAUCUGC: -0.418
CCUGUGCUACACAUCGUAUGUACCGAAUCAAAUUUUUUUAAAUUUUUAAAUUUUUUUAAAAAAGUAUUAUGUUACGCCGUUCGGAUCUGC: -3.08
UCAAGUCCUGUGCUACACAUCGUAUGUACCGAAUCGGGUUGGGGUUGGUUGGGGAAAGUAUUAUGUUACGCCGUUCGGAUCUGCACUUCC: -0.29
CAAGUCCUGUGCUACACAUCGUAUGUACCGAAUCGGGGAGGGGAAAGGGGUGGGGAAAGUAUUAUGUUACGCCGUUCGGAUCUGCACUUC: 0.144
AAGUCCUGUGCUACACAUCGUAUGUACCGAAUCGGGAAAAAGGGAGGGAAAAAGGGAAAGUAUUAUGUUACGCCGUUCGGAUCUGCACUU: -0.257
GCAGGAAGUAAAAACAAAUGGAAAUGCUUCGGAUAGUGGCAGGGGUGGGGGUUGCUAAGGAAAGGGUGGGAUGGGAGUGGAUAAAGAGUU: 1.44
CAAGUCCUGUGCUACACAUCGUAUGUACCGAAUCGGAAAAGGAAAAGGAAAAGGGGAAAGUAUUAUGUUACGCCGUUCGGAUCUGCACUU: -1.13
CCACCAUGACCCCUGACGGUCUGGCUGUGACCCCAACGCCGGUGCCCGUGGUCGGGAGCCAGAUGACCAGACAAGCCCGGCGCCUCUACG: 0.669

Set 2 — method: RNA Bind-n-Seq; molecule type: RNA; matrix: in vitro; concentration: not given; setting: RNA with constant flanks, ends assumed; reference: input RNA pool; direction: higher = stronger binding; endpoint: bound/input enrichment
Target: RING finger protein unkempt homolog, zinc fingers 1-6, GST-SBP tag (UNK, Homo sapiens, UniProt Q9C0B0, residues 30-357)
Constant ends, left off below: GGGAGUUCUACAGUCCGACGAUC … CAACAGAGGAUUGAGCAUCA
Target sequence (chain): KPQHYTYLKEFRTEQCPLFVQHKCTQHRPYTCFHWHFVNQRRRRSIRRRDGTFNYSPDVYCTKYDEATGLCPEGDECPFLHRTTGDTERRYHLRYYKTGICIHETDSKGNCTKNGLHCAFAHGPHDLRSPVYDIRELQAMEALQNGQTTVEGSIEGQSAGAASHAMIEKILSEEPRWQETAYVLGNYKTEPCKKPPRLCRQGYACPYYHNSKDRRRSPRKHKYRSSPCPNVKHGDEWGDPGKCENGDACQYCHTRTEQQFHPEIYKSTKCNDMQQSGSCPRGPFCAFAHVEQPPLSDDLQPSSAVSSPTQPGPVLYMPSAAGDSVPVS
ACUCCCCUCCCUCUAACAGCAGGCUGUGUGGGUUUCAAUUCCCAUCCUUCCCACCCCGGCCCGGUGUCGUCCACCCUGUAUCCUGUGUCUGAGUGUGUGUGGGGGGGUUCUGUACUAAUU: 0.296 ratio
CCUUCUAAUUUUGGAGAUUUUUCUCAGAAUGUUUCUACACCUACUGAACAGCAGCAGCCAUCCGCUCAAAAUCCUUCAGGGAAAACAGAGUAUAUGGCUUUUCCAAAACCCUUUGAAAGC: 0.138 ratio
AACAGGCACCCCCAGCUCACAUCACCAGCUCAUCCUUUGGUAGCCAUAGCAGCCCCAACUUCCGCCCCCACUCAUCCCUCCGGGGGCUUGCCUUUCCUUGACAGUUUGGGGGUCUGCCUG: 0.157 ratio
GGUGAAGUUCAGUUGGUUCGUCAUAAGGCAUCACAGAAGGUUUAUGCAAUGAAGCUUCUCCGUAAAUUUGAAAUGAUAAAAAGAUCAGAUUCUGCUUUUUUCUGGGAAGAAAGAGAUAUU: 0.213 ratio
GAGUGUGUGCUUGUGGAGUGGCGAGAUGGAUCAGAGAAGAACAAAGAGUUUCUUCCUCGAUCCGGAUCUUCUAUUGAGCACAUCUCUGUCUCACCUGCAGGAGAUUUGUUCUGUACUUCU: 0.0375 ratio
GUAUCCAUGGGGCUUACAAGGAGCAUGCAAGUUGUCCCCUUGGACAAACAGAUCACAAUCACCGACCGUCCGAGCUUCAUCGUAUCUCCACUUAAUUCCUCCUCUGCGCUUGCUCUGCGA: 0.0901 ratio
CCUGGUAAAUCUCAGGCAUCUAAUUUGAGAAAACGAGAAACCACAGCGUCUUCUAAAACAGCCGCAGCCAGGUCAGCACAGAAUCAGCCUCGGAAAGAAGAUCAGAAGAGAGCCUUCGUG: 0.125 ratio

Set 3 — method: universal PBM; molecule type: double-stranded DNA, one strand shown; matrix: in vitro; concentration: 600 nM; direction: higher = stronger binding; endpoint: E-score
Target: Sal-like protein 4, full length isoform A (SALL4, Homo sapiens, UniProt Q9UJQ4, residues 1-1053)
Chain of UniProt Q9UJQ4 (whole entry, looked up): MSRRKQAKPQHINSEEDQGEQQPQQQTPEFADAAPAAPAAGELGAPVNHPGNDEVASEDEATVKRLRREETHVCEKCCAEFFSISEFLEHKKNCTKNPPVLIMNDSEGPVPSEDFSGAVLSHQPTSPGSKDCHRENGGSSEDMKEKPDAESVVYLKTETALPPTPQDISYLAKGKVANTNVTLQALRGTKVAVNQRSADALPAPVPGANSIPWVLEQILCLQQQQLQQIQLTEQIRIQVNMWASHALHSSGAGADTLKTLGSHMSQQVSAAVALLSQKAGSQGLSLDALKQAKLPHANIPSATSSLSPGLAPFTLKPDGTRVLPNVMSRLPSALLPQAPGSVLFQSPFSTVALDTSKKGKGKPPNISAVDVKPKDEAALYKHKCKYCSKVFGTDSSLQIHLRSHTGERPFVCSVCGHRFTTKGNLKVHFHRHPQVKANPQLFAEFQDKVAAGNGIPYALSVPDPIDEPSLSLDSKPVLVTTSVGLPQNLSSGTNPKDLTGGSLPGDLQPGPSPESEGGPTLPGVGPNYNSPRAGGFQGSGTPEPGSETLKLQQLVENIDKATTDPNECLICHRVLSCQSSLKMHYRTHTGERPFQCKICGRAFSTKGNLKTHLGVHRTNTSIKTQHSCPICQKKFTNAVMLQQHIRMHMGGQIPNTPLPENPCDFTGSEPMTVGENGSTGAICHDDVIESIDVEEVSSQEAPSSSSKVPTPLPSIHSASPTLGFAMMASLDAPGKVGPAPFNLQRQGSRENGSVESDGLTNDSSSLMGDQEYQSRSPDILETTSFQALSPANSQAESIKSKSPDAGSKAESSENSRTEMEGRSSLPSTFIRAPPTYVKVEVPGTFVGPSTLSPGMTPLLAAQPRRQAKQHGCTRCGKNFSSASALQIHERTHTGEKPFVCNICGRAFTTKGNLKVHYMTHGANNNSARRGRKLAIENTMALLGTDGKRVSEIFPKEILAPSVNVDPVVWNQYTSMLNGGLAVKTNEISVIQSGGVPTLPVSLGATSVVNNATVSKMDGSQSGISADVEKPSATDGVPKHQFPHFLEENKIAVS
Setting: 8-mer, flanks averaged, mean of replicates
AGGAACCA: -0.199
CACTACCG: -0.123
CTAGTTTA: 0.123
GTGCTGTA: -0.0963
ACGCCGAC: -0.248
ATCTTTCC: 0.108
CCTCTAGA: -0.0087
AAGGGCAT: -0.00345
CTGTGCAA: 0.0574
CAGTTGTC: 0.00369
ACTGACAC: -0.0157
CGCATAAG: 0.13
GTCTCTAA: 0.121
AACTGCAA: -0.0152
TTTATAAA: 0.375

Other studies, line by line
PhoQ, residues 284 288 289 292 302 303 AQGLTV
fold induction (PhoP, residues 12 14 15 18 19 YHFSH (Escherichia coli, UniProt P23836); Sort-seq, item: YFP reporter; E. coli; PhoQ-PhoP variant library, added: 10 µM Mg2+; reference: high Mg2+ state, higher = stronger signaling): 17.9
